Experimental data gathered from unrelated publications.
Every numbered part comes from another study and shows a few of its results, in no order. Positions count from the first letter of the parent shown.

Set 1
Target: Sal-like protein 4, full length isoform A (SALL4, Homo sapiens, UniProt Q9UJQ4, residues 1-1053)
UniProt Q9UJQ4, sequence (whole entry, looked up): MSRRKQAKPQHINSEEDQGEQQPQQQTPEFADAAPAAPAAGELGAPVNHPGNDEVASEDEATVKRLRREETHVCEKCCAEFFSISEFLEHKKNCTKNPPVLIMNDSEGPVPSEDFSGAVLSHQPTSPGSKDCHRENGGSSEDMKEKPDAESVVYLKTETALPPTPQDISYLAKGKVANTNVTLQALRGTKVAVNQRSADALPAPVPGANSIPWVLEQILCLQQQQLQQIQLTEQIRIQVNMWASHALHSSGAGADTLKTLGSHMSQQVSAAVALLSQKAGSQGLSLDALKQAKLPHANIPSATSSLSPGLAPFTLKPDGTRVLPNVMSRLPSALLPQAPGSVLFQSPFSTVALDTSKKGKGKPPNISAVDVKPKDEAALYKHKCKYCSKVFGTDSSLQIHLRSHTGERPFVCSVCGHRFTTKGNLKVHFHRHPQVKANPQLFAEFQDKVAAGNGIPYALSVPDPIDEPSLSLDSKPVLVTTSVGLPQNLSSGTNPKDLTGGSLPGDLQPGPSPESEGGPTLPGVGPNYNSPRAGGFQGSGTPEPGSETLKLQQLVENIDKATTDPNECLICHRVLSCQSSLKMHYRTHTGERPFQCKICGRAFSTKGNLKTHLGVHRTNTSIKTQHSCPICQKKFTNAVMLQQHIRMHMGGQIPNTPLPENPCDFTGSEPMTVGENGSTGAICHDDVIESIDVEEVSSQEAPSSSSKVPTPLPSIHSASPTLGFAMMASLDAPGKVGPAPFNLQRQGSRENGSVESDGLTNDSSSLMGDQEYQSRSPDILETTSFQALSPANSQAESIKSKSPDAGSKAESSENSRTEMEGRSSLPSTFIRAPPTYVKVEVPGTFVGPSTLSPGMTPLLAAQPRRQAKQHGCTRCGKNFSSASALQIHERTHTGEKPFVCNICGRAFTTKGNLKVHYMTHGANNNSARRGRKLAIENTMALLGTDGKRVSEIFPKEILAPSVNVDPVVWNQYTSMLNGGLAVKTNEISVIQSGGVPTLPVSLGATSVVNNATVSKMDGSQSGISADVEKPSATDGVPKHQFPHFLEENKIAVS
Technique: universal PBM
Form: double-stranded DNA, one strand shown
Sample: in vitro
Concentration: 600 nM
Setting: 8-mer, flanks averaged, mean of replicates
Direction: higher = stronger binding
Strand | E-score
GGTAATAC | 0.171
AGTTTTTG | 0.279
AGCTCGAG | -0.24
GCAAGAGA | -0.0371
AATGATGC | 0.105
GGAAACAA | 0.0181
AAAACATT | 0.281
CATAAACC | 0.162

Set 2
Target: UBE2D3 UBC core domain (UniProt P61077)
Technique: yeast two-hybrid
Sample: yeast
Setting: mostly zero background
Reference: not given
Direction: higher = stronger interaction
B1: MID1 RING domain (UniProt O15344); chain METLESELTCPICLELFEDPLLLPCAHSLCFNCAHRILVSHCATNESVESITAFQCPTCRHVITLSQRGL
B2: ARK2C RING domain (UniProt Q6ZSG1); chain EGEESDTDEKCTICLSMLEDGEDVRRLPCMHLFHQLCVDQWLAMSKKCPICRVDIETQLGAD
B3: PHF21A RING domain (UniProt Q96BD5); chain SPTSTDGDIHEDFCSVCRKSGQLLMCDTCSRVYHLDCLDPPLKTIPKGMWICPRCQDQMLKKEEAIPW
B4: IRF2BPL RING domain (UniProt Q9H1B7); chain SPMANSGPLCCTICHERLEDTHFVQCPSVPSHKFCFPCSRESIKAQGATGEVYCPSGEKCPLVGSNVP
B5: TRIM69 RING domain (UniProt Q86WT6); chain VIQDITMELHCPLCNDWFRDPLMLSCGHNFCEACIQDFWRLQAKETFCPECKMLCQYNNCTF
B6: TRIM63 RING domain (UniProt Q969Q1); chain PMENLEKQLICPICLEMFTKPVVILPCQHNLCRKCANDIFQAANPYWTSRGSSVSMSGGRFRCPTCRHEVIMDRHGV
B7: TRIM72 RING domain (UniProt Q6ZMU5); chain APGLLHQELSCPLCLQLFDAPVTAECGHSFCRACLGRVAGEPAADGTVLCPCCQAPTRPQALST
B8: RC3H2 RING domain (UniProt Q9HBD1); chain QAAQWTEFLSCPICYNEFDENVHKPISLGCSHTVCKTCLNKLHRKACPFDQTAINTDIDVL
Residues (chain): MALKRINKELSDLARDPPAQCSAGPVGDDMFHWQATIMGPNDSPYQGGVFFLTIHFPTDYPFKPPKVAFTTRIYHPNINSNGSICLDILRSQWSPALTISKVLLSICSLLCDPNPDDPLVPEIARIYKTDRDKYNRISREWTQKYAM
Sequence | lacZ reporter activity
KTLSRFGIQPCSICLGDAKDPVCLPCDHVHCLRCLRAWFASEQMICPYCLTALPDEFSPA (RNF213 RING domain (UniProt Q63HN8)) | 0
PEELQAMDNVCIICREEMVTGAKRLPCNHIFHTSCLRSWFQRQQTCPTCRMDVLRASLPA (SYVN1 RING domain (UniProt Q86TM6)) | 0
B1 (MID1 RING domain) | 0
B2 (ARK2C RING domain) | 14500
B3 (PHF21A RING domain) | 0
B4 (IRF2BPL RING domain) | 0
B5 (TRIM69 RING domain) | 0
QLRRLQEERTCKVCMDKEVSIVFIPCGHLVVCKDCAPSLRKCPICRSTIKGTVRTF (BIRC3 RING domain (UniProt Q13489)) | 0
VTLSLTLPITCHICLGKVRQPVICINNHVFCSICIDLWLKNNSQCPACRVPITPENPCK (OBI1 RING domain (UniProt Q5W0B1)) | 0
B6 (TRIM63 RING domain) | 0
DAIPSLSECQCGICMEILVEPVTLPCNHTLCKPCFQSTVEKASLCCPFCRRRVSSWTRYH (RNF168 RING domain (UniProt Q8IYW5)) | 0
B7 (TRIM72 RING domain) | 0
B8 (RC3H2 RING domain) | 0

Set 3
Target: HLA class I histocompatibility antigen, A alpha chain, allele A*80:01 (Homo sapiens, UniProt P04439)
Read-out: peptide-MHC binding
Form: peptide
Concentration: concentration not given
Sequence | binding
ASLIPDATY | inactive
MLKLRQARL | inactive
LVKTESWIL | inactive
TRDHVNLVL | inactive
RVPTVFHKK | inactive
ESLLHQASW | inactive
MPIAAAIGT | inactive
YSQESPQSY | inactive
KLIDVSKCI | inactive
EILWDVIPF | inactive
TSACGIFLK | inactive

Set 4
Target: CCNB3, cyclin fold, Cln2 fusion (human)
Technique: yeast growth competition, sequencing
Sample: yeast
Setting: strong parent motif
Reference: not given
Direction: higher = stronger binding
Starting sequence: viral docking peptide; YKVKRRLVFGADD
Substitution | normalised enrichment score
YKVKRRLVFTADD [G10T] | 1.98
YKVKRRLVFGAHD [D12H] | 1.11
YKVKRRLMFGADD [V8M] | 1.29
YKVKRRLVRGADD [F9R] | -0.303
YKVKNRLVFGADD [R5N] | -0.116
YDVKRRLVFGADD [K2D] | 2.43
YSVKRRLVFGADD [K2S] | 2.26
YKVKRRLVFGAID [D12I] | 1.34
YKVKRRLVFGIDD [A11I] | 2.03
YKVKRRPVFGADD [L7P] | 0.0594
YKVNRRLVFGADD [K4N] | 1.76
YKVKRRLVFQADD [G10Q] | 1.55
YKVKRRLVCGADD [F9C] | 0.055
YKVKRILVFGADD [R6I] | 1.74
YKVKRRLVFGQDD [A11Q] | 1.76
